Measured values from different studies.
A part holds a random share of what one study measured.

Series 1
Target: RNA binding protein fox-1 homolog 2, RRM domain, GST-SBP tag (RBFOX2, Homo sapiens, UniProt O43251-10, residues 100-194)
Technique: RNA Bind-n-Seq
Molecule type: RNA
Matrix: in vitro
Tested at: 365 nM
Notes: natural RNA segment, single round, ends assumed
Baseline: no-protein control
Direction: higher = stronger binding
Constant ends, left off below: GGGAGUUCUACAGUCCGACGAUC … UGGAAUUCUCGGGUGCCAA
Target sequence (chain): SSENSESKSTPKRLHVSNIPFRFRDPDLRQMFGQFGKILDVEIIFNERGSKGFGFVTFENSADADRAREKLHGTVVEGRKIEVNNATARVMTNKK
| Oligonucleotide | RBNS enrichment (R) |
| --- | --- |
| UUCGGUUGGCUUCUCAGUGGAACCCAACUGAAGUUGUCUAAUUGCCUCUUCUCAGAGUUCAGGAAAAACAGUAGUGCCACUUGAGACCUCGUAGAGGAGGUAUACGUGGC | 0.295 |
| UGUUUGCACACAUUGGUAGACUGUUAUCAUUUGUGGUGGGAACCCAUGUAAAUAAGUAGACUGUAAAGAGAGACUAUCUUGCAUUAUGACUGUAUGAAUUUCUAAGUGCU | 0.646 |
| CAGGUAUCAACUAGGGGAGGAGAGAGGGUCUCCAGUGUUCCCCCCAUAGAGACCAGGAGGGAGAGCCUCUGUUUUGUAAACUAAGGAUAACCGAGUUUGCUAAAUUGAGA | 0.403 |
| GCCUUCCCUGAGGAUGGCUCUGUUCCUUUGCUUGUUAGAAGAGCGAUGCCUUGGGCAGGGUUUCCCCCUUUUCAGAAUACAGGGUGUAAAGUCCAGCCUAUUACAAACAA | 2.93 |
| CCAUCUUUCGGUGCAUUGGCCAUGUUACUGUGCCAAAGUGUCUUAAUUCUUGUCCCAUCUAUUCUCAGCUGGCCUUGGAACCCACAUAGGAGUUGGUGGGGGAGGGAUGG | 0.397 |
| AACACAUAUAUUUUAAAGUAUAACAUAUUUAUUAUAAUUUAUUUGCACCUUGGGAAGACUUGCUUUGCAUUCUGCCUCAAGAGCUUCUCAUUGAUGUCCAUCUGGAGGCC | 0.417 |
| AUUUAUAUUUCUGCUUGCACCAUUUCCAUAGCAGCUGACAAAGGCAAAAUCAUGAAAUAGAAUCAUUUCUAUAAAUUGCUUCUUUAAGUUUUCUCUAAAUUUUGCCUCUA | 0.682 |
| GAUGAUAGAGGGUGAAUGAUCUCAGUGCAUAUGUCAUACUGCCUUGUGGGUGGACUCUAAGUUGGCAAACCAAGGAUUUAGGGAGUGGCCUAGUCAACAUAAUUCUUUAA | 3.47 |
| CCUAGCAUUCAUGAUUUUUUUUUCAUACAAUGAAUUAAAAUUGCUAAAAUCAUGGACUGGCUUUCUGGUUGGAUUUCAGGUAAGAUGUGUUUAAGGCCAGAGCUUUUCUC | 0.719 |
| UUGCUCAGCAGCGGACUUACUCCCAGCGCCUUCCCUCCCUCCUGUCCCUCCUGUCCCCUCACUGUCCACUUUCUGUUCUUUCCUUGGGUUUCCUGUGAAGUUGGAGGGAC | 1.08 |
| GUUGGCUGGCCUCUUGGACCAGAAGCCAUCUCCAUAUCCUCAUGAGCGAUUCCAUAUCUCCACUCAGACCCUGUGGACUACAGUGUUCCGCUGUGGUGGCUGCCAAGAUG | 0.359 |
| UGCUCUCUGUGCUCUGUGGUGGCUUCCAUGCACUGCUGUGGCCAUGGAGACCCAGCUCCUUGCACGGUAGCCCAGCUUUUGCCCAGACCAGUGGCCAGAUUUGGCAUCAC | 0.384 |

Series 2
Target: Sal-like protein 4, full length isoform A (SALL4, Homo sapiens, UniProt Q9UJQ4, residues 1-1053)
UniProt Q9UJQ4, sequence (whole entry, looked up): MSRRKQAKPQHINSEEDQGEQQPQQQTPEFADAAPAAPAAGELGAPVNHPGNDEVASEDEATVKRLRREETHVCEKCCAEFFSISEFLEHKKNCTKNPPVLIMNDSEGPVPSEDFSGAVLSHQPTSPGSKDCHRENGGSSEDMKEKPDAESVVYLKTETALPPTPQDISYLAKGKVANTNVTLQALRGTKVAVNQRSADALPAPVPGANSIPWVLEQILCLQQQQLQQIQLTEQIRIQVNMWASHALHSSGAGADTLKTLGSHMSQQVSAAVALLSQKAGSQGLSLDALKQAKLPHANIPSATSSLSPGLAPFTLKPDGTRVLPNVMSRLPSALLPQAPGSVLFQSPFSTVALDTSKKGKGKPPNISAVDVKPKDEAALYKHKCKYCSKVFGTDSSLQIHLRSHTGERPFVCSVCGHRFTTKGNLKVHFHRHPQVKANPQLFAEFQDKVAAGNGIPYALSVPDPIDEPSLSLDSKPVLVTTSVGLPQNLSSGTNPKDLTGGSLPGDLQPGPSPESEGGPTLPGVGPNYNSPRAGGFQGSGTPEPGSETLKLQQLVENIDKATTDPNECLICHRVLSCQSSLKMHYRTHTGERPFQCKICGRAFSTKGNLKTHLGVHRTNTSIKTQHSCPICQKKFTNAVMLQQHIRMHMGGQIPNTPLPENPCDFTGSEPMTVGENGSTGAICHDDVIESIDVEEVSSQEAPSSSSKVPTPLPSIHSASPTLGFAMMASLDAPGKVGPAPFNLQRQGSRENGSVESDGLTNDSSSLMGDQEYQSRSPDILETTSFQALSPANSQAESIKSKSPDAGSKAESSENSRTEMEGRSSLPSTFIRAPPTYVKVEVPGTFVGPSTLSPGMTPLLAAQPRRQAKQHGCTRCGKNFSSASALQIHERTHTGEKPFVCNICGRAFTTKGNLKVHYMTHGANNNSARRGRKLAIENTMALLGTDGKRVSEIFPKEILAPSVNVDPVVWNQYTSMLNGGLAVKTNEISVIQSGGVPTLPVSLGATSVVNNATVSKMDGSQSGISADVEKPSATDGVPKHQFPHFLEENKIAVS
Technique: universal PBM
Molecule type: double-stranded DNA, one strand shown
Matrix: in vitro
Tested at: 600 nM
Notes: 8-mer, flanks averaged, mean of replicates
Direction: higher = stronger binding
| Oligonucleotide | E-score |
| --- | --- |
| ATAGTTTG | 0.21 |
| ACACAAGA | 0.163 |
| CGGTTGCC | -0.294 |
| GAAGACAA | 0.153 |
| CGAGCACC | -0.167 |
| AAGATAGG | 0.0935 |
| GGCCGATA | -0.0526 |
| AGTTTCGC | -0.00601 |
| CAACACAC | 0.024 |
| ACATGCCG | -0.0196 |
| AGGAAGTA | 0.0261 |
| CGTGTCCA | -0.204 |
| ACATCGAA | 0.15 |
| ACGCTGCC | -0.331 |
| GCAGGGGA | -0.237 |
| AGGTCGGA | -0.176 |
| CCCCAGTC | -0.23 |

Series 3
Target: Histone acetyltransferase KAT6A, winged helix 1, GST fusion (KAT6A, Homo sapiens, UniProt Q92794, residues 1-85)
Technique: protein binding microarray
Molecule type: double-stranded DNA, one strand shown
Matrix: in vitro
Tested at: not given
Notes: 8-mer, flanks averaged, mean of 2 arrays, mostly near background
Baseline: not given
Direction: higher = stronger binding
Residues (chain): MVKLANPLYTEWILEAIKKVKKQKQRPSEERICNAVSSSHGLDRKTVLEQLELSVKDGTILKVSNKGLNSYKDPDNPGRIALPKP
| Oligonucleotide | E-score |
| --- | --- |
| AATCATCT | -0.202 |
| ACGGGGCC | 0.216 |
| ACGAATCA | -0.147 |
| GGCAGGTA | 0.067 |
| ACGGAAGG | 0.169 |
| GCAGCACC | -0.042 |
| ATATAGGG | 0.0197 |
| CCGAAATA | 0.0962 |
| CTGTCCGC | 0.231 |
| CCCGCGAC | 0.405 |
| ATGACCGA | 0.0283 |
| CTATAGAA | 0.0272 |
| GTTGTTAA | 0.033 |
| GACTATCC | -0.0663 |
| TGATCCAA | -0.17 |
| TGCGGCAA | 0.259 |
| ATGTAAGG | -0.178 |
| AATAATAT | -0.0731 |
| GACGTCAA | -0.00864 |
| ATCGAGTA | -0.0279 |
| AATCTGGA | -0.0979 |
| GGTATGCA | -0.141 |
| ATCGTAAC | 0.0588 |
| CACCCCCA | -0.21 |

Series 4
Target: Sox, HMG box (Pigoraptor chileana)
Technique: Spec-seq
Molecule type: double-stranded DNA, one strand shown
Matrix: in vitro
Tested at: not given
Notes: whole probe, mean of replicates
Baseline: not given
Direction: lower = stronger binding
Constant ends, left off below: GAGTCGTCTCGTCAGCAC … CCGTAGAGCACTCAGGTC
Target sequence (chain): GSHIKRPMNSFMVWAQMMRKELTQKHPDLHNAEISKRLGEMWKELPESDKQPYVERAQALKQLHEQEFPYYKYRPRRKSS
| Oligonucleotide | relative binding energy [ln ratio] |
| --- | --- |
| TAGAGTT | 0.163 |
| CAACGTT | 0.913 |
| CATGACA | 0.341 |
| AGTTGTT | -2.03 |
| AATCGTT | -2.46 |
| GGACGTT | 1.69 |
| CATAGCG | -0.262 |
| CATGAAA | 0.215 |
| CACGGTT | 0.626 |
| CATTTTA | 0.173 |
| CCCAGTT | 0.165 |
| GTGAGTT | 1.1 |
| CATCGAT | 0.401 |
| CCGGGTT | 1.25 |
| CATAAAC | -0.42 |
| CATACTC | 0.426 |
| GAAGGTT | 1.4 |
| ACTGGTT | -0.232 |
| TATAGTT | -1.28 |
| CATGTGC | 0.772 |
| CATCGAA | 0.346 |
| GCATGTT | 0.0112 |
| GCTGGTT | 0.856 |
| ACGGGTT | 0.285 |
| CATTTAG | 0.115 |

Series 5
Target: Ras GTPase-activating protein-binding protein 1, full length (G3BP1, Homo sapiens, UniProt Q13283)
UniProt Q13283, sequence (whole entry, looked up): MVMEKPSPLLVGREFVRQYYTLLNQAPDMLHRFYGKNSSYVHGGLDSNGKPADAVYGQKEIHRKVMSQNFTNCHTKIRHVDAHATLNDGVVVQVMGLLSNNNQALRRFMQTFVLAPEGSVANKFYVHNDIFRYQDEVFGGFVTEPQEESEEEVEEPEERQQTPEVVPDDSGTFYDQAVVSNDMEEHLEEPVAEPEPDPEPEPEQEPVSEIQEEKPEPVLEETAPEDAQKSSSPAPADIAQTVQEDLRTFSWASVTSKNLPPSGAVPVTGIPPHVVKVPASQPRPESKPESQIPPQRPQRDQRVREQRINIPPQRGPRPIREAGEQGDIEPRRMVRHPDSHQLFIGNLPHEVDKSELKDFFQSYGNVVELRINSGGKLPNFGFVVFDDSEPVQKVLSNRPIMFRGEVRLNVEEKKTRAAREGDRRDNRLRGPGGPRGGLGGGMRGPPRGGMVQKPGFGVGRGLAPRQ
Technique: RNA Bind-n-Seq
Molecule type: RNA
Matrix: in vitro
Tested at: 200 nM
Notes: whole 134-nt RNA, ends assumed
Added: 150 mM LiCl
Baseline: input library
Direction: higher = stronger binding
All molecules: 7-deaza-guanosine replaces G
Constant ends, left off below: GGGAGUUCUACAGUCCGACGAUC … UGGAAUUCUCGGGUGUCAAGG
| Oligonucleotide | log2 enrichment |
| --- | --- |
| AACAGACAACACGCACCCACACAGACACAGAGGGAAGGGGUUGGGAUGGGGACAGGGUGCACAGCAGGGCGGGGUAGGACCCCAGCCCCU | 0.255 |
| AAGUCCUGUGCUACACAUCGUAUGUACCGAAUCGGGGAAAGGGGAGGGGUUUGGGGAAAGUAUUAUGUUACGCCGUUCGGAUCUGCACUU | -0.28 |
| UGGGAGGUGGAUUUUGUUUAUAUUUUUAGCUCAUUUCCAGGGGUGGGAAUUUUUUUUUAAUAUGUGUCAUGAAUAAAGUUGUUUUUGAAA | -0.325 |
| CAAGUCCUGUGCUACACAUCGUAUGUACCGAAUCGGGAAAAAGGGUUUGGGAGGGAAAGUAUUAUGUUACGCCGUUCGGAUCUGCACUUC | -0.659 |
| UCCUGUGCUACACAUCGUAUGUACCGAAUCGGGUUUGGGUUUUUUUGGGUUUUUUUGGGAAAGUAUUAUGUUACGCCGUUCGGAUCUGCA | 0.77 |
| ACCAUGCAGGUGGGCAUCUUUGGGAAGUGGGGCAAGGGGGGGAUAGGGAGGGGGGUAACACUUUGGGAACAGGUGAAACCAGGUCGUUUC | 0.161 |
| CCUCAAGUCCUGUGCUACACAUCGUAUGUACCGAAUCGGUGGUUUGGAAAGGAAAGUAUUAUGUUACGCCGUUCGGAUCUGCACUUCCAG | 0.596 |
| AGUCCUGUGCUACACAUCGUAUGUACCGAAUCAAAUUUUUAAACCCCCAAACCCAAAAAAGUAUUAUGUUACGCCGUUCGGAUCUGCACU | 1.33 |
| UGUCCCUGACUCUCCAUUUCCCCAUCUGAGUGGAUUUGGACCUAAUAGGGCACUGGAGCUGGUUCGAAUCCUGACUGGACUACUUGGCAA | 1.15 |
| CCUGUGCUACACAUCGUAUGUACCGAAUCGGCCCCCCCGGGCCCCCCCGGCCCCCCCGGGGAAAGUAUUAUGUUACGCCGUUCGGAUCUG | 0.18 |
| GCAGGAAGUAAAAACAAAUGGAAAUGCUUCGGAUAGUGGGAGGGGUGGGGGUUGCUAAGGAAAGGGUGGGAUGGGAGUGGGUAAAGAGUU | -0.288 |

A few entries again (series 3):
| Oligonucleotide | E-score |
| --- | --- |
| TGCGGCAA | 0.259 |
| CTGTCCGC | 0.231 |
| AATCATCT | -0.202 |
| GACTATCC | -0.0663 |
| CACCCCCA | -0.21 |
| ATCGAGTA | -0.0279 |
| TGATCCAA | -0.17 |
